Measurements of several laboratories.
A part holds a random share of what one study measured. Positions count from the first letter of the parent shown.

Sample 1
Target: CCNA1, cyclin fold, Cln2 fusion (human)
Method: yeast growth competition, sequencing
Sample: yeast
Setting: weak parent motif
Baseline: not given
Direction: higher = stronger binding
Starting sequence: E2F1 docking peptide (human); PPVKRRLDLETDH; partner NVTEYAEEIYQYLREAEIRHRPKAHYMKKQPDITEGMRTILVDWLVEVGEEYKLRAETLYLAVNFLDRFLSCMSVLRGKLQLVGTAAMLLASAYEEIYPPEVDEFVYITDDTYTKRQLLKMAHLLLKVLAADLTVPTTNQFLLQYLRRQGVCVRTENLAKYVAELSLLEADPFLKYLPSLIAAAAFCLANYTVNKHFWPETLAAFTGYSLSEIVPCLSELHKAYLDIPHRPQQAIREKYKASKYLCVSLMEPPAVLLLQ
For `CPVKRRLDLETDH [P1C]`, “normalised enrichment score” read 0.725.
`PPVKRRLVLETDH [D8V]` — result for “normalised enrichment score”: 0.373.
`PPVKRRLDLETDC [H13C]` — result for “normalised enrichment score”: 0.35.
`PPVKRFLDLETDH [R6F]`: “normalised enrichment score” 0.252.
For `PPVKRRLDLETDE [H13E]`, “normalised enrichment score” read 0.669.
`PPVKRRLWLETDH [D8W]`: “normalised enrichment score” 0.429.
For `PPVKRRLILETDH [D8I]`, “normalised enrichment score” read 0.487.

Sample 2
Target: Histone acetyltransferase KAT6A, both winged helices, GST fusion (KAT6A, Homo sapiens, UniProt Q92794, residues 1-181)
Method: protein binding microarray
Form: double-stranded DNA, one strand shown
Sample: in vitro
Tested at: not given
Setting: 8-mer, flanks averaged, mean of 2 arrays, mostly near background
Baseline: not given
Direction: higher = stronger binding
Residues (chain): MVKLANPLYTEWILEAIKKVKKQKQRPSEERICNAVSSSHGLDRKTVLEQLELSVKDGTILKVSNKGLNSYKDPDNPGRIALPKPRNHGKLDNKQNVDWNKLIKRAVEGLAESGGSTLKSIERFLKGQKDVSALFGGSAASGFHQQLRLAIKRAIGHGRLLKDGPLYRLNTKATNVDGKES
`AGCGAATA` has an E-score of -0.0103.
`CGTACCTA` gave an E-score of -0.0122.
For `TAGTGGAA`, the E-score was -0.0195.
With `CACGTTCG` the E-score was 0.145.
For `AGGACCCC`, the E-score was -0.0731.
The E-score of `AGAATGTG` is reported as -0.0598.
With `AACATCTG` the E-score was -0.0488.
`TAAGACCA` gave an E-score of -0.151.
For `CATCGGTC`, the E-score was 0.0414.
`CATCCCCG` gave an E-score of 0.182.
`ATGCGTCA` gave an E-score of 0.0884.
With `GGCCAAAC` the E-score was 0.078.
With `GAAGCGAC` the E-score was 0.0525.
`CGCGAAAA` has an E-score of 0.228.
For `CCTGGCGC`, the E-score was 0.194.
The E-score of `AAAGGGAG` is reported as -0.164.
With `CACCACGC` the E-score was 0.0685.

Sample 3
Target: RNA binding protein fox-1 homolog 2, RRM domain, GST-SBP tag (RBFOX2, Homo sapiens, UniProt O43251-10, residues 100-194)
Method: RNA Bind-n-Seq
Form: RNA
Sample: in vitro
Tested at: 365 nM
Setting: natural RNA segment, single round, ends assumed
Baseline: no-protein control
Direction: higher = stronger binding
`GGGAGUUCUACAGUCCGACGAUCUUCAAACAAUCAAGUUGACUCACGUGGGUCCUGAGGCCUGCAGCACGUCGGAUGCUACCCCACUAUGACAGAGGAUUGUGGUCACAACUUGAUGGCUGCGAAGACCUACCUGGAAUUCUCGGGUGCCAA` — result for “RBNS enrichment (R)”: 1.13.
`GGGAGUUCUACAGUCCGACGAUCGAUUCUAUUUCCCCACACCUGUUCCUUUUCUCGGUUUGCUGAGGGCCUCUUGGAUCCACUGGCCCAGAGAUUUAAAAGUUUGGGGUUGAGGAUGUGUGUAGCUCAGUUGGUGGAAUUCUCGGGUGCCAA`: “RBNS enrichment (R)” 0.892.
For `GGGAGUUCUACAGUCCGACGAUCCUUGUCCACAUAGGUUUAGAGAUAAGAGUUGGCUGGUCAACUUGAGCAUGUUACUGACAGAGGGGGUAUUGGGGUUAUUUUCUGGUAGGAAUAGCAUGUCACUAAAGCAGUGGAAUUCUCGGGUGCCAA`, “RBNS enrichment (R)” read 22.5.
`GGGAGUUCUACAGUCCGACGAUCUCCAGCUCUGGAGUGGGGUGCUAUUCUGGCAGUAUCUGGAACUUGGCCUACAGCUUCCUCUGCAGGGUCUAAACAGGGAAGGCACGUGUGGAGGAGUGGUCCCAGUGACAUGGAAUUCUCGGGUGCCAA`: “RBNS enrichment (R)” 0.623.
For `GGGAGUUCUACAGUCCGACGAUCCAUUCAUGUUCUCAUUCAUGAUGUUCAUGAUCUUGAGAUCUAUCUGCUGCAGUUUUUUGACUCCUGUCUGGUGGAACAUCCUGGAUUUCUUGGAUUUUUAGGUGUAAUUUUGGAAUUCUCGGGUGCCAA`, “RBNS enrichment (R)” read 0.404.
Under “RBNS enrichment (R)”, `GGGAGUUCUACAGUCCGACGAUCGUCAUUUCUGCACACCUGUCCGCUGUUGACACCUUAUUAGAGGCACUGCAUUUUGGUUUCACAAUUCUUCAUCUCCCUUCCCAAGGAAUGGGCAAUCUACUGAACUUCCAUGGAAUUCUCGGGUGCCAA` is recorded as 0.64.
`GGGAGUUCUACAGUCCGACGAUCAAUAAGUCUAAAGAAAAGAAAGUGCCUUAUUUUCCUUCAUGGUCAUUCAGUCAAGUGUCUCAUAAAGAUCAGCUCCUCCCUCAGAAUACAAGUUAAUGCAUGUUACUCAGUGGAAUUCUCGGGUGCCAA` — result for “RBNS enrichment (R)”: 22.3.
Under “RBNS enrichment (R)”, `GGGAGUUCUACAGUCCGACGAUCCCCCUGCAGCGGCUUUCAGUAUUUUGUACUUGUAGGCACCUAAUAAAUUUAUUAUUUGCUAUACUGACUGAUUGGAUUAGCUUCUGUUACUGCAAAGGGAAGAGCAUCUAUGGAAUUCUCGGGUGCCAA` is recorded as 0.397.

Sample 4
Target: Myc proto-oncogene protein, bHLH-zipper, MAX partner unstated (MYC, Homo sapiens, UniProt P01106, residues 368-449)
UniProt P01106, sequence (368-449, looked up): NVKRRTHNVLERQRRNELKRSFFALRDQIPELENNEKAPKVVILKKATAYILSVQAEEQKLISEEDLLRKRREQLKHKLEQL
Method: protein-binding microarray
Form: double-stranded DNA, one strand shown
Sample: in vitro
Tested at: not given
Setting: k-mer, scored over probes, only values ≥0.25
Direction: higher = stronger binding
The E-score of `CGCATGGA` is reported as 0.43.
For `GGTGGGTA`, the E-score was 0.293.
`GCGTGGCA` gave an E-score of 0.442.
For `ACGCGTCG`, the E-score was 0.308.
For `ATGGCCAC`, the E-score was 0.349.
With `AACATGAG` the E-score was 0.33.
`AACATGTG` gave an E-score of 0.465.
`AACCACGT` has an E-score of 0.453.

Mixed results
`PhoQ, residues 284 288 289 292 302 303 SACGEM` has a fold induction of 1.84 (PhoP, residues 12 14 15 18 19 SYFRT (Escherichia coli, UniProt P23836); Sort-seq, measured: YFP reporter; E. coli; PhoQ-PhoP variant library, together with: 10 µM Mg2+; baseline: high Mg2+ state, higher = stronger signaling).

Some of these lines once more (sample 3):
`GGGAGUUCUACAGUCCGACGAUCUCCAGCUCUGGAGUGGGGUGCUAUUCUGGCAGUAUCUGGAACUUGGCCUACAGCUUCCUCUGCAGGGUCUAAACAGGGAAGGCACGUGUGGAGGAGUGGUCCCAGUGACAUGGAAUUCUCGGGUGCCAA`: “RBNS enrichment (R)” 0.623.
Under “RBNS enrichment (R)”, `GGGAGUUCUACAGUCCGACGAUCCCCCUGCAGCGGCUUUCAGUAUUUUGUACUUGUAGGCACCUAAUAAAUUUAUUAUUUGCUAUACUGACUGAUUGGAUUAGCUUCUGUUACUGCAAAGGGAAGAGCAUCUAUGGAAUUCUCGGGUGCCAA` is recorded as 0.397.
`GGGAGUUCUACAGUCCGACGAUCGAUUCUAUUUCCCCACACCUGUUCCUUUUCUCGGUUUGCUGAGGGCCUCUUGGAUCCACUGGCCCAGAGAUUUAAAAGUUUGGGGUUGAGGAUGUGUGUAGCUCAGUUGGUGGAAUUCUCGGGUGCCAA`: “RBNS enrichment (R)” 0.892.
Under “RBNS enrichment (R)”, `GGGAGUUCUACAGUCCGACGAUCGUCAUUUCUGCACACCUGUCCGCUGUUGACACCUUAUUAGAGGCACUGCAUUUUGGUUUCACAAUUCUUCAUCUCCCUUCCCAAGGAAUGGGCAAUCUACUGAACUUCCAUGGAAUUCUCGGGUGCCAA` is recorded as 0.64.
`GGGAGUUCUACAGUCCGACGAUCUUCAAACAAUCAAGUUGACUCACGUGGGUCCUGAGGCCUGCAGCACGUCGGAUGCUACCCCACUAUGACAGAGGAUUGUGGUCACAACUUGAUGGCUGCGAAGACCUACCUGGAAUUCUCGGGUGCCAA` — result for “RBNS enrichment (R)”: 1.13.
